Measurements gathered from unrelated publications.
Each line is one published result; not all experiments were run side by side. ± marks the error that the study gave.

CCCC[C@H](NC(=O)CCCCCCCNC(=O)c1ccc(NN)nc1)C(=O)N[C@H]1CC(=O)NCCCC[C@@H](C(N)=O)NC(=O)[C@H](Cc2c[nH]c3ccccc23)NC(=O)[C@H](CCCNC(=N)N)NC(=O)[C@@H](Cc2ccccc2)NC(=O)[C@H](Cc2c[nH]cn2)NC1=O [technetium-99m labelled]  uptake (C57 mouse, B16/F1 melanoma, heart; intravenous, 0.5 h): 1.75 ± 0.31 %ID/g
N=C(N)NCCC[C@@H]1NC(=O)[C@H](CCCCNC(=O)CCc2cn(CCC[C@@H]3O[C@H](COC(=O)NCCNC(=O)CN4CCN(CC(=O)O)CCN(CC(=O)O)CCN(CC(=O)O)CC4)[C@@H](O)[C@H](O)[C@H]3O)nn2)NC(=O)[C@@H](Cc2ccccc2)NC(=O)[C@H](CC(=O)O)NC(=O)CNC1=O [gallium-68 labelled]  plasma half-life (rodent plasma; 37 °C): > 2 h
N=C(N)NCCC[C@H](NC(=O)[C@H](CCCCN)NC(=O)[C@H](CCC(N)=O)NC(=O)CCOCCOCCOCCNC(=O)CN1CCN(CC(=O)O)CCN(CC(=O)O)CCN(CC(=O)O)CC1)C(=O)N[C@@H](CCCCN)C(=O)N[C@@H](CCCNC(=N)N)C(=O)N[C@@H](CCCCN)C(=O)N[C@@H](CCCCN)C(=O)N[C@@H](CO)C(=O)N[C@@H](CCCNC(=N)N)C(=O)N[C@@H](Cc1ccc(O)cc1)C(=O)N[C@@H](CCCCN)C(=O)N[C@@H](CO)C(=O)O [copper-64 labelled]  time to best imaging quality (PET; mice, B16-F10 melanoma; intravenous): ≤ 1 h
N=C(N)NCCC[C@@H]1NC(=O)[C@H](CCCCNC(=O)CNC(=O)CNC(=O)CNC(=O)CC[C@H](NC(=O)CCOCCOCCOCCOCCNC(=O)CC[C@H](NC(=O)CN2CCN(CC(=O)O)CCN(CC(=O)O)CCN(CC(=O)O)CC2)C(=O)NCCOCCOCCOCCOCCC(=O)N[C@@H](CCC(=O)NCC(=O)NCC(=O)NCC(=O)NCCCC[C@@H]2NC(=O)[C@@H](Cc3ccccc3)NC(=O)[C@H](CC(=O)O)NC(=O)CNC(=O)[C@H](CCCNC(=N)N)NC2=O)C(=O)NCC(=O)NCC(=O)NCC(=O)NCCCC[C@@H]2NC(=O)[C@@H](Cc3ccccc3)NC(=O)[C@H](CC(=O)O)NC(=O)CNC(=O)[C@H](CCCNC(=N)N)NC2=O)C(=O)NCC(=O)NCC(=O)NCC(=O)NCCCC[C@@H]2NC(=O)[C@@H](Cc3ccccc3)NC(=O)[C@H](CC(=O)O)NC(=O)CNC(=O)[C@H](CCCNC(=N)N)NC2=O)NC(=O)[C@@H](Cc2ccccc2)NC(=O)[C@H](CC(=O)O)NC(=O)CNC1=O [indium-111 labelled]  tissue uptake (female athymic nude mice, spleen; intravenous, 3 µCi, 1 h, U-87 MG glioma xenograft): 2.02 ± 0.34 %ID/g
CSCC[C@H](NC(=O)[C@H](CC(C)C)NC(=O)[C@H](Cc1c[nH]cn1)NC(=O)CNC(=O)[C@@H](NC(=O)[C@H](C)NC(=O)[C@H](Cc1c[nH]c2ccccc12)NC(=O)[C@H](CCC(N)=O)NC(=O)CCCCCNC(=O)CNC(=O)CNC(=O)CNC(=O)CSC(C)=O)C(C)C)C(N)=O [technetium-99m labelled]  tissue uptake (nude mouse, PC-3 xenograft, tumor; 90 min): 0.29 ± 0.05 %ID/g
N=C(N)NCCC[C@@H]1NC(=O)[C@H](CCCCNC(=O)CC[C@H](NC(=O)CCOCCOCCOCCOCCNC(=O)CC[C@H](NC(=O)CN2CCN(CC(=O)O)CCN(CC(=O)O)CCN(CC(=O)O)CC2)C(=O)NCCOCCOCCOCCOCCC(=O)N[C@@H](CCC(=O)NCCCC[C@@H]2NC(=O)[C@@H](Cc3ccccc3)NC(=O)[C@H](CC(=O)O)NC(=O)CNC(=O)[C@H](CCCNC(=N)N)NC2=O)C(=O)NCCCC[C@@H]2NC(=O)[C@@H](Cc3ccccc3)NC(=O)[C@H](CC(=O)O)NC(=O)CNC(=O)[C@H](CCCNC(=N)N)NC2=O)C(=O)NCCCC[C@@H]2NC(=O)[C@@H](Cc3ccccc3)NC(=O)[C@H](CC(=O)O)NC(=O)CNC(=O)[C@H](CCCNC(=N)N)NC2=O)NC(=O)[C@@H](Cc2ccccc2)NC(=O)[C@H](CC(=O)O)NC(=O)CNC1=O [indium-111 labelled]  tumour to tissue ratio (athymic nude mice, female, U-87 MG glioma xenograft, tumour and muscle; intravenous, 0.5 h; reference: tumour over muscle): 13.9 ± 6.43
N=C(N)NCCC[C@@H]1NC(=O)[C@H](CCCCNC(=O)CNC(=O)CNC(=O)CNC(=O)CC[C@H](NC(=O)c2ccc(NN=Cc3ccccc3S(=O)(=O)O)nc2)C(=O)NCC(=O)NCC(=O)NCC(=O)NCCCC[C@@H]2NC(=O)[C@@H](Cc3ccccc3)NC(=O)[C@H](CC(=O)O)NC(=O)CNC(=O)[C@H](CCCNC(=N)N)NC2=O)NC(=O)[C@@H](Cc2ccccc2)NC(=O)[C@H](CC(=O)O)NC(=O)CNC1=O [technetium-99m labelled]  tissue uptake (athymic nu/nu mouse, female, MDA-MB-435 xenograft, blood; intravenous, 120 min): 0.3 ± 0.06 %ID/g
N=C(N)NCCC[C@@H]1NC(=O)[C@H](CCCCNC(=O)CC[C@H](NC(=O)CCOCCOCCOCCOCCNC(=O)CN2CCN(CC(=O)O)CCN(CC(=O)O)CCN(CC(=O)O)CC2)C(=O)NCCCC[C@@H]2NC(=O)[C@@H](Cc3ccccc3)NC(=O)[C@H](CC(=O)O)NC(=O)CNC(=O)[C@H](CCCNC(=N)N)NC2=O)NC(=O)[C@@H](Cc2ccccc2)NC(=O)[C@H](CC(=O)O)NC(=O)CNC1=O [indium-111 labelled]  tumour to tissue ratio (athymic nude mice, female, U-87 MG glioma xenograft, tumour and lungs; intravenous, 72 h; reference: tumour over lungs): 4.75 ± 0.63
CC(C)C[C@H](NC(=O)[C@@H]1CCCN1C(=O)[C@H](CCCCN)NC(=O)[C@@H](N)CO)C(=O)N1CCC[C@H]1C(=O)N[C@@H](CCC(=O)O)C(=O)N[C@H](C(=O)N[C@H](C(=O)N[C@@H](CC(=O)O)C(=O)N[C@@H](CCC(=O)O)C(=O)N[C@@H](Cc1ccc(O)cc1)C(=O)N[C@@H](Cc1cn(CCOCCOCCOCCNC(=O)CCc2ccc(O)c(CN(CCN(CC(=O)O)Cc3cc(CCC(=O)NCCCC[C@H](NC(=O)N[C@@H](CCC(=O)O)C(=O)O)C(=O)O)ccc3O)CC(=O)O)c2)nn1)C(=O)O)[C@@H](C)O)C(C)C [gallium-68 labelled]  standardized uptake value (NMRI nu/nu mice, LNCaP tumour, testes; 10 MBq, high molar activity): 0.18 g/g
N=C(N)NCCC[C@@H]1NC(=O)[C@H](CCCCNC(=O)CCOCCOCCOCCOCCNC(=O)CN2CCN(CC(=O)O)CCN(CC(=O)O)CCN(CC(=O)O)CC2)NC(=O)[C@@H](Cc2ccccc2)NC(=O)[C@H](CC(=O)O)NC(=O)CNC1=O [indium-111 labelled]  tumour to tissue ratio (athymic nude mice, female, U-87 MG glioma xenograft, tumour and kidney; intravenous, 0.5 h; reference: tumour over kidney): 0.36 ± 0.13
CC(C)C[C@@H]1NC(=O)[C@H](C(C)C)NC(=O)[C@H](CO)NC(=O)CNC(=O)CNC(=O)[C@H](CCCNC(=N)N)NC(=O)[C@@H]2CCCN2C(=O)[C@@H](NC(=O)CC[C@H](NC(=O)c2ccc(N(C)Cc3cnc4nc(N)nc(N)c4n3)cc2)C(=O)O)C(C)(C)SSC[C@@H](C(=O)O)NC(=O)CNC(=O)[C@H]([C@@H](C)O)NC(=O)[C@H](C(C)C)NC1=O  half-life (chemical stability; NaOH solution; 100 µM, pH 12.0, 70 °C): 9.29 h
C[C@@H](O)[C@H](NC(=O)[C@@H]1CSSC[C@H](NC(=O)[C@@H](Cc2ccccc2)NC(=O)CN2CCCN3CCN(CCCN(CP(=O)(O)O)CC3)CC2)C(=O)N[C@@H](Cc2ccc(O)cc2)C(=O)N[C@H](Cc2c[nH]c3ccccc23)C(=O)N[C@@H](CCCCN)C(=O)N[C@@H]([C@@H](C)O)C(=O)N1)C(=O)O [copper-64 labelled]  activity cleared from pancreas (male Lewis rat, AR-42J tumour-bearing; dose not given, 1 to 24 h; reference: 1 h activity): 79%
Cc1ncsc1-c1ccc(CNC(=O)[C@@H]2C[C@@H](OC(=O)OCCSSCCn3cc(CCCC(=O)N[C@@H](Cc4ccc(O)cc4)C(=O)N[C@@H](CCCNC(=N)N)C(=O)N[C@@H](CCCNC(=N)N)C(=O)N[C@@H](CCCNC(=N)N)C(=O)N[C@@H](CCCNC(=N)N)C(=O)N[C@@H](CCCNC(=N)N)C(=O)N[C@@H](CCCNC(=N)N)C(=O)N[C@@H](CCCNC(=N)N)C(=O)N[C@@H](CCCNC(=N)N)C(=O)N[C@@H](CCCNC(=N)N)C(N)=O)nn3)CN2C(=O)[C@@H](NC(=O)COCCOCCOCCNC(=O)C[C@@H]2N=C(c3ccc(Cl)cc3)c3c(sc(C)c3C)-n3c(C)nnc32)C(C)(C)C)cc1  remaining intact compound (UHPLC; PBS; 100 nM, 1 h, 37 °C, with: 5 mM glutathione; reference: total peak area): 0%
N=C(N)NCCC[C@@H]1NC(=O)[C@H](CCCCNC(=O)CCOCCOCCOCCOCCNC(=O)CC[C@H](NC(=O)CCOCCOCCOCCOCCNC(=O)CC[C@H](NC(=O)CN2CCN(CC(=O)O)CCN(CC(=O)O)CCN(CC(=O)O)CC2)C(=O)NCCOCCOCCOCCOCCC(=O)N[C@@H](CCC(=O)NCCOCCOCCOCCOCCC(=O)NCCCC[C@@H]2NC(=O)[C@@H](Cc3ccccc3)NC(=O)[C@H](CC(=O)O)NC(=O)CNC(=O)[C@H](CCCNC(=N)N)NC2=O)C(=O)NCCOCCOCCOCCOCCC(=O)NCCCC[C@@H]2NC(=O)[C@@H](Cc3ccccc3)NC(=O)[C@H](CC(=O)O)NC(=O)CNC(=O)[C@H](CCCNC(=N)N)NC2=O)C(=O)NCCOCCOCCOCCOCCC(=O)NCCCC[C@@H]2NC(=O)[C@@H](Cc3ccccc3)NC(=O)[C@H](CC(=O)O)NC(=O)CNC(=O)[C@H](CCCNC(=N)N)NC2=O)NC(=O)[C@@H](Cc2ccccc2)NC(=O)[C@H](CC(=O)O)NC(=O)CNC1=O [indium-111 labelled]  tumour to tissue ratio (athymic nude mice, female, U-87 MG glioma xenograft, tumour and liver; intravenous, 72 h; reference: tumour over liver): 2.6 ± 0.8
CCCC[C@H](NC(=O)CNC(=O)[C@H](CO)NC(=O)CNC(=O)c1ccc(NN)nc1)C(=O)N[C@H]1CC(=O)NCCCC[C@@H](C(N)=O)NC(=O)[C@H](Cc2c[nH]c3ccccc23)NC(=O)[C@H](CCCNC(=N)N)NC(=O)[C@@H](Cc2ccccc2)NC(=O)[C@H](Cc2c[nH]cn2)NC1=O [technetium-99m labelled]  uptake (C57 mouse, B16/F1 melanoma, kidneys; intravenous, 2 h): 3.9 ± 1.01 %ID/g
CCCC[C@H](NC(=O)CNC(=O)CNC(=O)c1ccc(NN)nc1)C(=O)N[C@H]1CC(=O)NCCCC[C@@H](C(N)=O)NC(=O)[C@H](Cc2c[nH]c3ccccc23)NC(=O)[C@H](CCCNC(=N)N)NC(=O)[C@@H](Cc2ccccc2)NC(=O)[C@H](Cc2c[nH]cn2)NC1=O [technetium-99m labelled]  uptake (C57 mouse, B16/F1 melanoma, blood; 2 h, with: L-lysine 12 mg): 0.09 ± 0.05 %ID/g

Some of these lines once more:
CCCC[C@H](NC(=O)CCCCCCCNC(=O)c1ccc(NN)nc1)C(=O)N[C@H]1CC(=O)NCCCC[C@@H](C(N)=O)NC(=O)[C@H](Cc2c[nH]c3ccccc23)NC(=O)[C@H](CCCNC(=N)N)NC(=O)[C@@H](Cc2ccccc2)NC(=O)[C@H](Cc2c[nH]cn2)NC1=O [technetium-99m labelled]  uptake (C57 mouse, B16/F1 melanoma, heart; intravenous, 0.5 h): 1.75 ± 0.31 %ID/g
N=C(N)NCCC[C@@H]1NC(=O)[C@H](CCCCNC(=O)CCOCCOCCOCCOCCNC(=O)CC[C@H](NC(=O)CCOCCOCCOCCOCCNC(=O)CC[C@H](NC(=O)CN2CCN(CC(=O)O)CCN(CC(=O)O)CCN(CC(=O)O)CC2)C(=O)NCCOCCOCCOCCOCCC(=O)N[C@@H](CCC(=O)NCCOCCOCCOCCOCCC(=O)NCCCC[C@@H]2NC(=O)[C@@H](Cc3ccccc3)NC(=O)[C@H](CC(=O)O)NC(=O)CNC(=O)[C@H](CCCNC(=N)N)NC2=O)C(=O)NCCOCCOCCOCCOCCC(=O)NCCCC[C@@H]2NC(=O)[C@@H](Cc3ccccc3)NC(=O)[C@H](CC(=O)O)NC(=O)CNC(=O)[C@H](CCCNC(=N)N)NC2=O)C(=O)NCCOCCOCCOCCOCCC(=O)NCCCC[C@@H]2NC(=O)[C@@H](Cc3ccccc3)NC(=O)[C@H](CC(=O)O)NC(=O)CNC(=O)[C@H](CCCNC(=N)N)NC2=O)NC(=O)[C@@H](Cc2ccccc2)NC(=O)[C@H](CC(=O)O)NC(=O)CNC1=O [indium-111 labelled]  tumour to tissue ratio (athymic nude mice, female, U-87 MG glioma xenograft, tumour and liver; intravenous, 72 h; reference: tumour over liver): 2.6 ± 0.8
